Measurements gathered from unrelated publications.
Parts stem from different laboratories: compare values within a part only.
Chain of UniProt P35590 (whole entry, looked up): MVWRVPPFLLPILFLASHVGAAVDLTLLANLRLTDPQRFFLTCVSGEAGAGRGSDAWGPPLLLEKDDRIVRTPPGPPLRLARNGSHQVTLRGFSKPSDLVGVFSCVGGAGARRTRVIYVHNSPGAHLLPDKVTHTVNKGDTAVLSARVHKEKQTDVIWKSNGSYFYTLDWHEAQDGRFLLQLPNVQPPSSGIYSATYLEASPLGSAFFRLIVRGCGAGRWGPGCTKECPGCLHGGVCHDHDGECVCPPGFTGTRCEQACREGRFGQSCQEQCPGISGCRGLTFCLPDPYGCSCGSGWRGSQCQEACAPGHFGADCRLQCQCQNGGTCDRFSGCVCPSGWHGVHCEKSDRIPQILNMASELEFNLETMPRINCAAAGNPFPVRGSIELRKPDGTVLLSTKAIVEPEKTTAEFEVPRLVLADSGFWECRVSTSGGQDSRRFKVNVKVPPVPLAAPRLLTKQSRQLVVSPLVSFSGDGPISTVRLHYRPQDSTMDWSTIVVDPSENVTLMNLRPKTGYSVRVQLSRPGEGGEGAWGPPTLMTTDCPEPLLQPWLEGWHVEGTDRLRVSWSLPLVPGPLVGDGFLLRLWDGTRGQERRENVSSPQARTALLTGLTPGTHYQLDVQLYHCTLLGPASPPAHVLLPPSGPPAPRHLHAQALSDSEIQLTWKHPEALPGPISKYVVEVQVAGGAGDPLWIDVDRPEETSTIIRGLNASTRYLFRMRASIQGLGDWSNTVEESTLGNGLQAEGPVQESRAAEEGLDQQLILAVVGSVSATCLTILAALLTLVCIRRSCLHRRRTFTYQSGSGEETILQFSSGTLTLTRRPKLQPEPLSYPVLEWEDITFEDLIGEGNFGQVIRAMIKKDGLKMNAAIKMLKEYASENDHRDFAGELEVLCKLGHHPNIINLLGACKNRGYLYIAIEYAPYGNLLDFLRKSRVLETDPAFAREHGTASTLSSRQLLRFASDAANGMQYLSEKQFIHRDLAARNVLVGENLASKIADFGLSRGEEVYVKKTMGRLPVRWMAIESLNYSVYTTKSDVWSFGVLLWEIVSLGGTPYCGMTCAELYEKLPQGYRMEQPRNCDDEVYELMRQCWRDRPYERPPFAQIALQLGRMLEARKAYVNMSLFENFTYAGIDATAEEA
Chain of UniProt P04629 (whole entry, looked up): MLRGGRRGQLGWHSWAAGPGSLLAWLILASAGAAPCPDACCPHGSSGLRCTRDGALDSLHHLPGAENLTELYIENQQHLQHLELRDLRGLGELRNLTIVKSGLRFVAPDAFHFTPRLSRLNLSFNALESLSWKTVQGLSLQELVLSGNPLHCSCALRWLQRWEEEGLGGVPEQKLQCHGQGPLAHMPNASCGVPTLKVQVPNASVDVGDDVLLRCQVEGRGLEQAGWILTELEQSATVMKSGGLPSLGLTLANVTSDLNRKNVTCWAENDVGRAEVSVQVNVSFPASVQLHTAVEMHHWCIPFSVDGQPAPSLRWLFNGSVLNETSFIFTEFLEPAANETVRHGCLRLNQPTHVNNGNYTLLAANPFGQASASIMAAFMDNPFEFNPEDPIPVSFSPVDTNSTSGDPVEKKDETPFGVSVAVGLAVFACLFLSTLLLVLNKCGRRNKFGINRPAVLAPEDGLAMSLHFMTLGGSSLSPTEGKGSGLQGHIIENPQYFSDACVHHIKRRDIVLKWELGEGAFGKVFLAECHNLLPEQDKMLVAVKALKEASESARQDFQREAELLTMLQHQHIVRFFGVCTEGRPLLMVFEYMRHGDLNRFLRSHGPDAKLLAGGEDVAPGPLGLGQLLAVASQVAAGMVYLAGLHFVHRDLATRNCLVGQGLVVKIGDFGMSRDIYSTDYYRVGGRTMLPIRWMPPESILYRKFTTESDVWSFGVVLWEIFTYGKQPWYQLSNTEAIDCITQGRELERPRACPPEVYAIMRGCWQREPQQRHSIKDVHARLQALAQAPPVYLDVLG
Chain of UniProt P49761 (whole entry, looked up): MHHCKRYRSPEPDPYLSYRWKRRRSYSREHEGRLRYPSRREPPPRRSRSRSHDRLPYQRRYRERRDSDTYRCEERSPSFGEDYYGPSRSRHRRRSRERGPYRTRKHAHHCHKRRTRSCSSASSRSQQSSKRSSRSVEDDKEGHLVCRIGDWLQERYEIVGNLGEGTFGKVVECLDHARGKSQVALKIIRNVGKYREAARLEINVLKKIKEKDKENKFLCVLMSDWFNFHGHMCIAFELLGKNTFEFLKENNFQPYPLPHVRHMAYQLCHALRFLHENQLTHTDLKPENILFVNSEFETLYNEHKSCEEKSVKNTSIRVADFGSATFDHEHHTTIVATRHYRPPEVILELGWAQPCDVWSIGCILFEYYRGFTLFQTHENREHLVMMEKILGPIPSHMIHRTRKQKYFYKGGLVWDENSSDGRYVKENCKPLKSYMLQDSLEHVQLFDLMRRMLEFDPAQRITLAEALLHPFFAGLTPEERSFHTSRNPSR
Chain of UniProt P29320 (whole entry, looked up): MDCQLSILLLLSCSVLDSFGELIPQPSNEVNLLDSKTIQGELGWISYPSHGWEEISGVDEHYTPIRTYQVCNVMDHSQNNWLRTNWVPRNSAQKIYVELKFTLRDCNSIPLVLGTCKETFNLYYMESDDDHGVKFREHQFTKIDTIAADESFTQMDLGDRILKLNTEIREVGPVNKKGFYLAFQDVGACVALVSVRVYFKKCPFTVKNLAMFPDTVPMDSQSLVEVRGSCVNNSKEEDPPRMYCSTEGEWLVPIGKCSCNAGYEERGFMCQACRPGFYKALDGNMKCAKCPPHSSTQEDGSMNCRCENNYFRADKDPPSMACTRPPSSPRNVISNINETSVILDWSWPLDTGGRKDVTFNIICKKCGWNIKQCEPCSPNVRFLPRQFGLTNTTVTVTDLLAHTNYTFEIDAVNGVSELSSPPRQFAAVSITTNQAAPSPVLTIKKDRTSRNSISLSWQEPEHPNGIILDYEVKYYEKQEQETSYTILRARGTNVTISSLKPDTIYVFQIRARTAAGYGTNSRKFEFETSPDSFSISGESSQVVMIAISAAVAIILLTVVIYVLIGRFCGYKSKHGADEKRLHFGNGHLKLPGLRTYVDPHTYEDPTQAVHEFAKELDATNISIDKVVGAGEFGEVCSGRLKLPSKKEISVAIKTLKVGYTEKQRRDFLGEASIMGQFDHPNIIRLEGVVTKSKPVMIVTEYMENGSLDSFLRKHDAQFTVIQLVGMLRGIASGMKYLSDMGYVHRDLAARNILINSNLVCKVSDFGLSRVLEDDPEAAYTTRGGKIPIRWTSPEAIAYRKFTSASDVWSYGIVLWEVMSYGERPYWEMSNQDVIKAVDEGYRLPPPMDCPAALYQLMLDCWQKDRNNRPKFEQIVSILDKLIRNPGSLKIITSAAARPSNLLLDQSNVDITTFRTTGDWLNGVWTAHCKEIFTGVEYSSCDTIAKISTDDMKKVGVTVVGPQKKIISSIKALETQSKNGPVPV
Chain of UniProt Q9BWU1 (whole entry, looked up): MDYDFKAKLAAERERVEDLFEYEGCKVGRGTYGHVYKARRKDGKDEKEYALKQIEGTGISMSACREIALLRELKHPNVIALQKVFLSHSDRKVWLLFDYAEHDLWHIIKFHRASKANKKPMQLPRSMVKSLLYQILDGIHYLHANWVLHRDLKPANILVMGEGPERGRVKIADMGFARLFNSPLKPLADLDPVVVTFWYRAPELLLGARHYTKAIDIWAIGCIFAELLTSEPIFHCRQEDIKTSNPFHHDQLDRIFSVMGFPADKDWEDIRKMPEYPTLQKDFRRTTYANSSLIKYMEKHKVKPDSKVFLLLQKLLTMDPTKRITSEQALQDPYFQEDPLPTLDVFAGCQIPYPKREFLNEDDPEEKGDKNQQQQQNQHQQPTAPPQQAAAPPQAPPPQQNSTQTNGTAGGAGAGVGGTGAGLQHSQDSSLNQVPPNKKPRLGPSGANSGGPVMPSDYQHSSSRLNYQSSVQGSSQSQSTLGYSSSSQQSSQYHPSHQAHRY
Chain of UniProt Q96Q40 (whole entry, looked up): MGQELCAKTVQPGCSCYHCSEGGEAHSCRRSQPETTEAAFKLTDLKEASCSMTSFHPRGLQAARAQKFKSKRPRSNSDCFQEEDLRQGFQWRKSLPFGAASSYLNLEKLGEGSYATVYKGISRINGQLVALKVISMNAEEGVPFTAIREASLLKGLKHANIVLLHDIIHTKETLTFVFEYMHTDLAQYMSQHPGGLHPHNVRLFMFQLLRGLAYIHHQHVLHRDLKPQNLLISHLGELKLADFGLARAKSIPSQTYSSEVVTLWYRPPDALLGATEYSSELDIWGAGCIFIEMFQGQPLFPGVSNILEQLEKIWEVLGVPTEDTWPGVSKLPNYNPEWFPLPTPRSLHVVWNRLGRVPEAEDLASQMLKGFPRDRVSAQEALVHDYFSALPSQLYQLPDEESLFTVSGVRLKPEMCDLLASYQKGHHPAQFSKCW

Block 1
Host: mouse
Medium: microsomes or S9
Concentration: 2 µM
Time: 0.5 h
| SMILES | remaining compound [%] |
| --- | --- |
| CCN(CC)c1ncc(CNc2ccc(F)cn2)s1 | 0.0459 |
| O=C(c1c(OCC2CC2)cc(=O)n2c1CCOCC2)N1CCN(C2CCCCC2)CC1 | 48.3 |
| CC1CC(N(C(=O)Nc2ccc(Cl)c(Cl)c2)c2ccccc2)c2ccccc2N1C(=O)Nc1ccc(Cl)c(Cl)c1 (centres unmarked) | 0 |
| Cc1cccc(S(=O)(=O)NCCCC(C)C(=O)O)c1Br (centres unmarked) | 92.6 |
| COc1ccc(COc2ncnc3sc(C)c(C)c23)cc1F | 1.74 |
| CCOc1cc(=O)n2c(c1C(=O)N1CCN(C3CCCCC3)CC1)CCCCC2 | 21.2 |
| Cc1n[nH]c(C)c1C12CC3CC(CC(CC(=O)O)(C3)C1)C2 | 62.2 |
| COCCOc1cc(=O)n2c(c1C(=O)NCCC1=CCCCC1)CCOCC2 | 27.5 |
| CCC(C)c1ccccc1OCCn1cnc2ccccc21 (centres unmarked) | 0.0128 |
| CCC(C)NCc1ccccc1-c1ccc(S(C)(=O)=O)cc1 (centres unmarked) | 88.5 |
| Cc1cc(CO)cc(Oc2nc(Cl)nc(Cl)c2C(C)C)c1 | 1.09 |
| O=c1cc(-c2ccccc2)oc2cc(O)c(O)c(O)c12 | 41 |

Block 2
Target: G protein-coupled receptor kinase 6 (GRK6, Homo sapiens, UniProt P43250)
Chain of UniProt P43250 (whole entry, looked up): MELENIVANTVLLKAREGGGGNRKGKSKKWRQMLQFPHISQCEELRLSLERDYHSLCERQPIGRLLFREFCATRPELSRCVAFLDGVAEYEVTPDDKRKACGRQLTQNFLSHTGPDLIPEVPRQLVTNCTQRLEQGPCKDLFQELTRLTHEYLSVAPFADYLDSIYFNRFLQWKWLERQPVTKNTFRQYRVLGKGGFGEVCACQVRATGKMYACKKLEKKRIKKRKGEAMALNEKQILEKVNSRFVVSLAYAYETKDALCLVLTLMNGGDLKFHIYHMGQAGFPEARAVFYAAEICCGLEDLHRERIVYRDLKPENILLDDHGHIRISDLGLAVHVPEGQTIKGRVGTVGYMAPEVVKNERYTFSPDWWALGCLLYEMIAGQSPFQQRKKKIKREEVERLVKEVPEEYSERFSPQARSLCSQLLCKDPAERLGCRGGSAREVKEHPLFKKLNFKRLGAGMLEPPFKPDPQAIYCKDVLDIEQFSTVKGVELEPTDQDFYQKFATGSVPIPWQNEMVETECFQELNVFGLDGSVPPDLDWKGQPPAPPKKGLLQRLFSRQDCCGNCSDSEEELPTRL
Read-out: enzyme activity
Action: inhibitor
Concentration: 0.5 µM
Relative to: control
| Structure (SMILES) | remaining activity |
| --- | --- |
| COc1cc(Nc2c(C#N)cnc3cc(OCCCN4CCN(C)CC4)c(OC)cc23)c(Cl)cc1Cl | 99.5% |
| CC(=O)c1ccc(N2CCOCC2)cc1O | 100% |
| Nc1nccc(-c2c(-c3ccc(F)cc3)ncn2C2CCNCC2)n1 | 98.2% |
| CSc1nc(-c2ccnc(N[C@@H](C)c3ccccc3)c2)c(-c2ccc(F)cc2)[nH]1 (racemic) | 79.8% |
| NC(=O)c1ccc(N(C(N)=O)c2c(F)cccc2F)nc1-c1ccc(F)cc1F | 97.1% |
| CC[n+]1c(/C=C/N(C)c2ccccc2)n(-c2ccccc2)c2ccc(-c3nc4ccccc4s3)cc21 | 98.9% |
| Fc1ccc(-c2nc3n(c2-c2ccncc2)CCS3)cc1 | 103% |
| Cc1cc(Nc2nc(-c3ccccc3)nc3ccccc23)n[nH]1 | 75.8% |
| COc1ccc(S(=O)(=O)N(CCO)c2ccccc2CN(C)CC=Cc2ccc(Cl)cc2)cc1 | 106% |
| O=S(=O)(NCCNC/C=C/c1ccc(Br)cc1)c1cccc2cnccc12 | 93.5% |
| N#CC(=C(N)Sc1ccc(N)cc1)c1ccccc1C(F)(F)F | 100% |

Block 3
Compound: O=C(N1CCS(=O)(=O)CC1)N1C[C@H](c2ccc(OC(F)(F)F)cc2)C[C@H](c2nc(C3CC3)no2)C1
Concentration: 1 µM
| target | read-out | method | remaining binding [%] |
| --- | --- | --- | --- |
| CDK15 (Homo sapiens, UniProt Q96Q40) | cell-free assay | competition with immobilised ligand | 100 |
| EPHA8 (Homo sapiens, UniProt P29322) | cell-free assay | competition with immobilised ligand | 100 |
| CDK11A (Homo sapiens, UniProt Q9UQ88) | cell-free assay | competition with immobilised ligand | 0 |
| SIK2 (Homo sapiens, UniProt Q9H0K1) | cell-free assay | competition with immobilised ligand | 100 |
| FYN (Homo sapiens, UniProt P06241) | cell-free assay | competition with immobilised ligand | 80 |
| TIE1 (Homo sapiens, UniProt P35590) | cell-free assay | competition with immobilised ligand | 100 |
| CLK3 (Homo sapiens, UniProt P49761) | cell-free assay | competition with immobilised ligand | 100 |
| CDK4 (Homo sapiens, UniProt P11802) | cell-free assay | competition with immobilised ligand | 18 |
| CDK19 (Homo sapiens, UniProt Q9BWU1) | – | competition binding | 100 |
| NTRK1 (Homo sapiens, UniProt P04629) | cell-free assay | competition with immobilised ligand | 87 |
| ERBB2 (Homo sapiens, UniProt P04626) | cell-free assay | competition with immobilised ligand | 100 |
| IKBKB (Homo sapiens, UniProt O14920) | cell-free assay | competition with immobilised ligand | 77 |
| EPHA3 (Homo sapiens, UniProt P29320) | cell-free assay | competition with immobilised ligand | 100 |
| WNK1 (Homo sapiens, UniProt Q9H4A3) | cell-free assay | competition with immobilised ligand | 100 |

Single results of other studies
| Compound | host | concentration | notes | quantity | result |
| --- | --- | --- | --- | --- | --- |
| CC(C)n1cnc(-c2ccc(F)cc2)c1-c1ncc(C(=O)Nc2ccc(N3CCN(C)CC3)cc2)[nH]1 | human, idiopathic pulmonary fibrosis | concentration not given | trial, all arms total | patients with Hypothyroidism | 0% |
